Published values of several laboratories.
A part holds a random share of what one study measured. Changes are numbered by the printed parent chain.

Sample 1
Target: Sal-like protein 4, full length isoform B (SALL4, Homo sapiens, UniProt Q9UJQ4-2, residues 1-616)
Technique: universal PBM
Form: double-stranded DNA, one strand shown
Medium: in vitro
Tested at: not given
Notes: 8-mer, flanks averaged, mean of replicates
Direction: higher = stronger binding
Strand | E-score
CCACAGCA | -0.0903
AACGACAG | -0.0529
AAATCTTG | 0.131
ACCCGCAG | -0.105
AGGGTTGC | -0.0767
ATGCTAGG | 0.00638
ACGCAGAC | -0.0569
CGTCACAA | -0.0853
AGAAGTGC | -0.245
TGCAGAAA | 0.165
ACTTTATG | 0.255
AGATTCCG | -0.0107
TGTTAGAA | 0.205
GCATTCGC | -0.0676
GCGCACGC | -0.293
AATGTTGA | 0.202
GAATCATC | 0.0927
GACTGTCA | 0.00542
ATGTTTAG | 0.231
ATGGCAAA | 0.0759
ACTGGGTG | -0.283
AGATCGGC | -0.277
ATAGTTTC | 0.21
TCATACCA | 0.256
AATATCCA | 0.309

Sample 2
Target: ABI1, truncated, D143A, DHFR fusion (Arabidopsis thaliana)
Technique: DHFR PCA, deep sequencing
Medium: yeast
Notes: methotrexate growth selection, single substitutions
Together with: (+)-ABA 1.4 µM
Relative to: wild-type fitted maximum
Direction: higher = stronger binding
Starting sequence: PYL1, truncated, DHFR fusion (Arabidopsis thaliana); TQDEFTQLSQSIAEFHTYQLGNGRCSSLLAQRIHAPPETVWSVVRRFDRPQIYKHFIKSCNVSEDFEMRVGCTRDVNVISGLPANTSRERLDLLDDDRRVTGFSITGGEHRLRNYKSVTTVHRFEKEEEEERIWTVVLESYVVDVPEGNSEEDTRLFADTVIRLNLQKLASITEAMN; partner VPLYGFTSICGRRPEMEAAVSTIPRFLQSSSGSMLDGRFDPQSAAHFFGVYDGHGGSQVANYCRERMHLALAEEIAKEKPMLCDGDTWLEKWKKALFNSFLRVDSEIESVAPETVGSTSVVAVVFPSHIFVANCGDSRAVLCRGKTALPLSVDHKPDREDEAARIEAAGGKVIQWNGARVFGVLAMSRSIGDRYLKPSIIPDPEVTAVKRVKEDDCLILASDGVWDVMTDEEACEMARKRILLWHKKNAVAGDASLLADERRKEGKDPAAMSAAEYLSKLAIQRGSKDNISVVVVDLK
Substitution | relative binding score
D144L | -13.1%
A30G | 34.9%
F157D | 9.1%
H110G | 15.1%
G23P | -5.36%
S11V | 74%
T6D | 68.8%
K116W | -3.9%
V44P | -0.889%
E125T | 59.8%
R155M | 31.1%
T101S | 17.6%
L29D | 4.81%

Sample 3
Target: RNA binding protein fox-1 homolog 2, RRM domain, GST-SBP tag (RBFOX2, Homo sapiens, UniProt O43251-10, residues 100-194)
Technique: RNA Bind-n-Seq
Form: RNA
Medium: in vitro
Tested at: 365 nM
Notes: natural RNA segment, single round, ends assumed
Relative to: no-protein control
Direction: higher = stronger binding
Shared flanks, not repeated: GGGAGUUCUACAGUCCGACGAUC … UGGAAUUCUCGGGUGCCAA
Target sequence (chain): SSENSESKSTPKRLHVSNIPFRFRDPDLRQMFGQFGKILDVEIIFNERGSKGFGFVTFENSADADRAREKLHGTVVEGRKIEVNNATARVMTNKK
Strand | RBNS enrichment (R)
GUAGAGAAAGCUAUUUUAUUCUGUAUUUUUAAAACUGUUCCGUACAAAUAAAAGCUCUCCUGGAUGUGUUCUGUUGUCAUUUGCCUCUUUCUUGGGCUGGAAUUCAAUUA | 1.45
UAGAAAACGUUGAACACUCCUACUGCCUGGAUAUAUGGUAGUGCAGUUAUGUUGUUUAUGGCUCAAGAUGUCAUUAGAAAUACUGCAGUGGUGUAUUCACAGCUGCUCCU | 0.34
AAGUGGCCGCUAGAGAAGAAUACAAUUUAGCAGCAACUGCCGGCUCUUUGGGCAGAGGUUUGAUUUUUGGCAUUUGUACAAGCCGCACGGGCAAAGGGGGAAAAGAAUGC | 2.31
AAGAGCAUGAACGCAUCAAUAGAAAGAACUCGGGGAAACAUCCCAUCAACAGGACUACACACUUGUAUAUACAUUCUUGAGAACACUGCAAUGUGAAAAUCACGUUUGCU | 23.7
AGAGGAGACUGAGCUAACUUCAGCUUGCUUGCUUGCUUGCUUGCUUGCUUGCUUGCUUGCUUGCCCUUAAAGAACAGAUCAAGCCUACAUACUCCAUACACUAUACUUCA | 0.408
UCGGAGUACUUGAAGAAGGCCCACGGGCGGCACGGAGUUCCUGAGCCCUUUCUGUAGUGGGGGAAAGGUGGCUGGACCUCUGUUGGCUGAGAAGAGCAUCCCUUCAGCUU | 1.54
AUCUUUUUAGCACUAAGGAAUUUGAUUUCAGCCUUCCAGCUGUUGCUGUGAGUUGUUCCAGACCUUUCUGUGGCUUUUUGGUAAGGCUGCUUAGAAGCAUGAGAAGCAUG | 3.18
GGUUUCCUUCCGUUAGCUUUUGGGUUUCCUCGGUGGCUCUGGCAAGGCUGCUGCUGUGUCAUUCGGUGCCUUUGUGAGUUUCCUUGCUGUAGGUGAUUCUUGACUGUGGG | 0.33
AACUGACACAUCUGUUCUGUUGGUAAAUAAGGAGACACCCGGUAAAACUAAUUUAGGUUCCAAUAGUUGUGCAGAACUUGUGUUUCUUGGUGAUUCUCCUCAAGUACUAG | 0.462
UCAAACCCAGCCUGACCGCUUCUGACGCCGGGAUGGCCUCGUUACUAGACUUUUCUUUUUAAGGAAGUGCUGUUUUUUUUUGAGGGUUUUCAAAACAUUUUGAAAAGCAU | 0.354
AAACUUUUAUUUCAUAAAUUUUAAAAUAAUUAUUUUUGAUUAUGAAUACUAGUCCAAAUUUAAUAUUUGACAGAAUUCGUAUUGCUUGCUAUAACAAGGAUAGUUUAUAG | 1.63
UGCUUGGAGCUAUCUCUACAUUUAGUGAAUUUCUUGUAAAACACUUUGAGAUACAUUGUUUUGGAAAUUCAUACAAUUUUCUCAACAUUGUAUUCUACUGACAGGAUGCG | 0.284

Sample 4
Target: Interferon regulatory factor 7, full length, phosphomimetic (IRF7, Homo sapiens, UniProt Q92985, residues 1-503, S101K/S471D/S472D/S475D/S476D/S477D/S483D/S484D/S487D)
Sequence of UniProt Q92985 (whole entry, unmodified, looked up): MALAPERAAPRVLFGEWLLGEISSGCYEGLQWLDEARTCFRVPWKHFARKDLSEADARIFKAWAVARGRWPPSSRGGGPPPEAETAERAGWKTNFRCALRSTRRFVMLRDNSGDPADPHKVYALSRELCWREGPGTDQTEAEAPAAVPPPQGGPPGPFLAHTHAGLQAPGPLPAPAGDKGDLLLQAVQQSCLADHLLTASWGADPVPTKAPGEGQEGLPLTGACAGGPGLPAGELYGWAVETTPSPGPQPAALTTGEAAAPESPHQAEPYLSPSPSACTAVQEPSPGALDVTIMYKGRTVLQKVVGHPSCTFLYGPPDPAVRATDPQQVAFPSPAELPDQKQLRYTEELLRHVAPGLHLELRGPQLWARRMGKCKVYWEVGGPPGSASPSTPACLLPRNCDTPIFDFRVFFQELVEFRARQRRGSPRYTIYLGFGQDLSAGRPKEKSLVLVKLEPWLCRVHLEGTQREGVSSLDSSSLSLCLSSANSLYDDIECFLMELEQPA
Technique: protein-binding microarray
Form: double-stranded DNA, one strand shown
Medium: in vitro
Tested at: 250 nM
Notes: 60-bp whole probe
Together with: salmon DNA 0.4 mg/ml
Relative to: random background probes
Direction: higher = stronger binding
Shared flanks, not repeated: GCCTAGCAC … GTCTTGATTCGCTTGACGCTGCTG
Strand | log fluorescence
AGTATGTTCCCTATTTAAGGGTGCTAG | 2.73 z-score
ATTAGTATGTTCACTATTTAAGTGCTA | 0.22 z-score
TTAGGTCTCGGACTGAGTTAGTGCTAG | 0.215 z-score
GACGAACTGGGGTTTCGAGAGGTGCTA | 0.576 z-score
TCATATTTAAGCTCCTATACTGTGCTA | 0.362 z-score
ATATTTCCCAGAACTGGAGTGGTGCTA | 2.05 z-score
TCAATTTTTAGGATGGGACTGTGCTAG | 0.127 z-score
GAGGATTTCGGGTATCGAGACGTGCTA | 0.36 z-score
CACGGTTTCCTACTGCTGACGTGCTAG | 1.85 z-score
GACGAACGGAGTTTCGAGACGTGCTAG | 3.64 z-score
TCACTTCCCAATAATCTTACTGTGCTA | 1.41 z-score
GACGATTTCAGGCTCGAGACGTGCTAG | 0.444 z-score
TTAGCTATCCTTCTCCTTTAGTGCTAG | 0.16 z-score
TTAGGGATCGGACTGGGTTAGTGCTAG | -0.12 z-score
TTAGGTTTCGGGTTTCGTTTAGTGCTA | 12.8 z-score
GACGCACTGGACACTGGGGACGTGCTA | -0.239 z-score
TCCCCTCTAGGTTCTCTGAAGGTGCTA | -0.308 z-score
GACGATCTCAGTATAGAGACGTGCTAG | -0.309 z-score
GACGGTTTCGGTTTCGGGTCGTGCTAG | 15.2 z-score
TCACTTCTGCATTACAGACTGTGCTAG | 0.759 z-score
TTAGATAGCAGTTTCGATTAGTGCTAG | 8.07 z-score
GACAATCTCAGACTGGAGACGTGCTAG | -0.283 z-score
CCATTTTGGTTTTCTCTATTGGTGCTA | 2.35 z-score
TCACATTTTGGTTTTCTACTGTGCTAG | 1.19 z-score

Sample 5
Target: CCND3, cyclin fold, Cln2 fusion (human)
Technique: yeast growth competition, sequencing
Medium: yeast
Notes: weak parent motif
Relative to: not given
Direction: higher = stronger binding
Starting sequence: SLBP docking peptide (human); ARYKRKLLINDFG
Substitution | normalised enrichment score
Y3V | 0.153
D11M | 0.22
A1S | 0.195
K4L | 0.157
L8N | 0.166
L7W | 0.07
L7I | 0.0347
L8E | 0.167
D11Y | 0.244
K6Q | 0.149
N10G | 0.225
R5H | 0.154
L8Y | 0.118
R2Y | 0.291
L7C | 0.19
A1R | 0.144
Y3I | 0.174

Repeated from above (sample 5):
Substitution | normalised enrichment score
L7I | 0.0347
N10G | 0.225
K4L | 0.157
L8E | 0.167
L7W | 0.07
K6Q | 0.149
Y3V | 0.153
D11M | 0.22
